Results of several laboratories.
Protocols differ between the studies behind these lines. ± gives the spread as reported.

SMILES = CC1=CC(C)(C)N=C2C=CC(=O)C=C12; system = mice, plasma; conditions = oral, 425 mg/kg; endpoint = Cmax; value = 2.15 µg/mL
SMILES = O=C1CC(=O)N(c2ccccc2)c2cc(Cl)ccc2N1; system = C57BL/6 mice, whole blood; conditions = oral, 30 mg/kg; endpoint = Cmax; value = 11.5 µM
SMILES = C[C@H](CCC(=O)N[C@@H](CCCCNC(=O)C(F)(F)F)C(=O)O)[C@H]1CC[C@H]2[C@@H]3[C@H](O)C[C@@H]4C[C@H](O)CC[C@]4(C)[C@H]3C[C@H](O)[C@]12C; system = C57BL/6J mice, plasma; conditions = oral, 50 mg/kg; endpoint = Cmax; value = 24.8 ± 19.6 µM
SMILES = CCOP(=O)(OCC)OCCCCOC(=O)CC1=C(C)C(=Cc2ccc([S+](C)[O-])cc2)c2ccc(F)cc21 (centres unmarked); assay = HPLC; system = mice, lung; conditions = inhalation, dose not given, 8 min exposure; endpoint = Cmax; value = 22.2 nmol/g tissue
SMILES = CCC[C@@H]1O[C@@H]2C[C@H]3[C@@H]4C[C@H](F)C5=CC(=O)CC[C@]5(C)[C@@]4(F)[C@@H](O)C[C@]3(C)[C@]2(C(=O)CO)O1; system = CD1 mice, plasma; conditions = subcutaneous, 0.2 mg/kg; endpoint = Cmax; value = 0.074 µM
SMILES = Cc1cc(Nc2nc(C[C@@]3(C(=O)O)CCN(Cc4cccc(Cl)c4F)[C@H](C)C3)cc(C)c2F)n[nH]1; system = BALB/c nude mice, female, NCI-H446 xenograft, tumour tissue; conditions = oral, 10 mg/kg single; endpoint = Cmax; value = 1510 ng/g
SMILES = C[C@@](O)(C(F)F)[C@H](NC(=O)c1ccc(C#CC#CC2CC2)cc1)C(=O)NO; system = CD-1 mice, plasma; conditions = intravenous, 40 mg/kg; endpoint = Cmax (extrapolated C0); value = 60.6 ± 5 µg/mL
SMILES = CCn1ccc(-c2cc(-c3cnn(C)c3)cc([C@@H](C)NC(=O)c3cc(OCCN(C)C)ccc3C)c2)n1; system = C57BL/6J mice, male, plasma; conditions = oral, 50 mg/kg; endpoint = Cmax; value = 4.54 µg/mL
SMILES = CC[C@H](C)[C@H](NC(=O)[C@H](C)NC(=O)[C@H](CCCCN)NC(=O)[C@H](CC(C)C)NC(=O)[C@H](Cc1ccccc1)NC(=O)[C@@H](N)CC[Se]C)C(=O)N[C@@H](CCCCN)C(=O)N[C@@H](CCCCN)C(=O)N[C@@H](Cc1ccccc1)C(=O)NCC(=O)N[C@@H](CCCCN)C(=O)N[C@@H](CCC(=O)O)C(=O)N[C@@H](Cc1ccccc1)C(=O)N[C@@H](CCCCN)C(=O)N[C@@H](CCCCN)C(=O)N[C@H](C(=O)NCC(=O)N[C@@H](C)C(=O)N[C@@H](CCCCN)C(=O)N[C@@H](CC(C)C)C(=O)N[C@@H](CCCCN)C(=O)O)[C@@H](C)CC; assay = refers to: selenium; system = BALB/c mice, serum; conditions = intraperitoneal, 70 mg/kg; endpoint = Cmax; value = 20 µg/mL
SMILES = CSCC[C@H](NC(=O)CNC(=O)[C@H](CC(=O)O)NC(=O)[C@@H](NC(=O)[C@@H](NC(=O)[C@@H](NC(=O)CNC(=O)[C@H](CCC(=O)O)NC(=O)[C@H](CCSC)NC(=O)[C@H](CC(=O)O)NC(=O)[C@H](C)NC(=O)[C@H](C)NC(=O)[C@@H](NC(=O)[C@H](CO)NC(=O)[C@@H](N)CC(C)C)[C@@H](C)O)C(C)C)C(C)C)[C@@H](C)O)C(=O)N[C@@H](C)C(=O)N[C@@H](CO)C(=O)NCC(=O)N[C@@H](CC(C)C)C(=O)N[C@@H](CC(=O)O)C(=O)N[C@@H](CCCCN)C(=O)N[C@@H](CC(=O)O)C(=O)N[C@@H](Cc1ccc(O)cc1)C(=O)N[C@@H](CC(C)C)C(=O)N[C@@H](CCCCN)C(=O)N1CCC[C@H]1C(=O)N[C@@H](CC(=O)O)C(=O)N[C@@H](CC(=O)O)C(=O)O; system = male CD-1 mice, serum; conditions = intravenous, 480 mg/kg; endpoint = Cmax; value = 2470 µg/mL
SMILES = CCCCCCCC(=O)SCC/C=C/[C@@H]1CC(=O)NCc2nc(cs2)C2=N[C@@](C)(CS2)C(=O)N[C@@H](C(C)C)C(=O)N1; assay = refers to: thiol form; system = female NIH Swiss mice, whole blood; conditions = intravenous bolus, 5 mg/kg, two-compartment model; endpoint = Cmax; value = 4.8 µg/mL
